Published values from different studies.
Every numbered part comes from another study and shows a few of its results, in no order.

Sample 1
Target: RNA binding protein fox-1 homolog 2, RRM domain, GST-SBP tag (RBFOX2, Homo sapiens, UniProt O43251-10, residues 100-194)
Technique: RNA Bind-n-Seq
Form: RNA
Sample: in vitro
Tested at: 365 nM
Notes: natural RNA segment, single round, ends assumed
Relative to: no-protein control
Reading: higher = stronger binding
Measurement: RBNS enrichment (R)
Construct (chain): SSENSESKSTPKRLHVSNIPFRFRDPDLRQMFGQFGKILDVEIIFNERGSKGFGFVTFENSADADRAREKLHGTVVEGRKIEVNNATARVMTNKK
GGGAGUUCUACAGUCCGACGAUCACUUCUUCCUGCCUUGGUUUCCCCGUCAGAAAUGGGGAACAGUGGUAGCUACCUCAUAACUUGUAAAGAAUCCAAUGAAUUAAAACACAGGUCUCAGUAUUAGCUUGUAUUGGAAUUCUCGGGUGCCAA: 0.381
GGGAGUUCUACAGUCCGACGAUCACUCCGAAUUCCAUAUGUAAUAGGAUGCAAGUCUAAGCGUUUCAUGUGGACAUAAAUGUAUCUAAAUAAAACUUUCCCUAGCACUGUGGCUGACCUCACCCUUACUUUUAUGGAAUUCUCGGGUGCCAA: 0.536
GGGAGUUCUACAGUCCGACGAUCCCUCUUUACCUCGCCCACGCGGACACACGCCUCCUGUAGUCGCUUUGCCUAUUGAUGUUCCUUUGGGUCUGUGAGGUUCUGUAAACUGUGCUAGUGCUGACGAUGUUCUGUGGAAUUCUCGGGUGCCAA: 0.733
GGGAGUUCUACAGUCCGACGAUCGUUUACCAUAAAGUUCCUUUCUCAGUAGAUUUUUCUUUCUUUUUUAAAAGAGGUGGUUGGCAAUUUAGGAUUCAUCUGGGUCUGUCCUGGUAAAGUCCUGCUGUGCAGAUUGGAAUUCUCGGGUGCCAA: 0.544
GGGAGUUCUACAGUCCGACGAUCGAAAUAACUGCAACUAGAGAAAACUGUAUAAAAACAUUAAAUUGUCAGUAUUUUUGUAAGGUUCCAUUUUGUAAAGAGAAUAAUAUUCAAAGACUUUUGUAGCAUACAAAUGGAAUUCUCGGGUGCCAA: 1.12
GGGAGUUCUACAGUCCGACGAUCGACCGUCGUAGGCUUCCAUUUUUCCCAUCACCCACUGUAAAGGCUCAGAGUUGAACUACCACUGUGGCUGCUUAUUGCUUCCUCCUAAGUUGCUACUGUUCAUAGAACUGUGGAAUUCUCGGGUGCCAA: 0.409
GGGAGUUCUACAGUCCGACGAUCGCUACUGUUAAAAUCCUGAUGUUUCUGUGGAAUCCUCAGUGUUUAAUCCCACUCAAUAGUAUCAUUACAGUUUUCUGUAAGAGAAAAUAUUACUUAUUUAUCCCAGUAUUUGGAAUUCUCGGGUGCCAA: 0.555
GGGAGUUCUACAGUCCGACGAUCUGAGAAAUGUAUGCGUUUGUAAACUUGCCAUGGGUCCGAAUAUUUUCAAGCCAUGUAAUCCAUUAAUUUUGUGGGAAGCUUAAUAAAUCAGAAGCUUUUAUUUCUUCUUAUGGAAUUCUCGGGUGCCAA: 1.16
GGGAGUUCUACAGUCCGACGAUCCCCUCAGACAUUGGGUUGCACCCCAACAAAUAUUAAAUGGCUUCUUCUUAAAGCCCAGAGAAAGAGGUUUUUUAAAAGACUGUCGCCAAAUAGCUGAGCCAAAAGGCUGAUGGAAUUCUCGGGUGCCAA: 0.294
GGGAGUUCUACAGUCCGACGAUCCAGAAUAGGCCCAUAUGAUAGGGCAACCCUGAGCUUAAACAAUGACAUCUUCAAGGGUAGAACUAAUCUGAAACCCCAUUCAGCCUAUUCCAGAAUGGGGAUAGGCUGAAUGGAAUUCUCGGGUGCCAA: 0.267
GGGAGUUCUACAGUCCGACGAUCCCAGAAGGCCCGGGGGUCUCCGAGGUGCCGGUUAGGAGUUUGAACCCCCCCCACUCUGCAGAGGGAAGCGGGGACAAUGCCGGGGUUUCAGGCAGGAGACACGAGGAGGGUGGAAUUCUCGGGUGCCAA: 0.768
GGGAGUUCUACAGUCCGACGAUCGCCUUCCUUUUCUAGGGCCAAACUCCUCUCCAAAUACUAGGUUGGGUUCAUUUAUCUUUUAAGGAGUUUUACUUUUCUCUCCAGAGGGACCAGGUCUUCUUAUGCAGUGAUGGAAUUCUCGGGUGCCAA: 0.6

Sample 2
Target: Ras GTPase-activating protein-binding protein 1, full length (G3BP1, Homo sapiens, UniProt Q13283)
Sequence of UniProt Q13283 (whole entry, looked up): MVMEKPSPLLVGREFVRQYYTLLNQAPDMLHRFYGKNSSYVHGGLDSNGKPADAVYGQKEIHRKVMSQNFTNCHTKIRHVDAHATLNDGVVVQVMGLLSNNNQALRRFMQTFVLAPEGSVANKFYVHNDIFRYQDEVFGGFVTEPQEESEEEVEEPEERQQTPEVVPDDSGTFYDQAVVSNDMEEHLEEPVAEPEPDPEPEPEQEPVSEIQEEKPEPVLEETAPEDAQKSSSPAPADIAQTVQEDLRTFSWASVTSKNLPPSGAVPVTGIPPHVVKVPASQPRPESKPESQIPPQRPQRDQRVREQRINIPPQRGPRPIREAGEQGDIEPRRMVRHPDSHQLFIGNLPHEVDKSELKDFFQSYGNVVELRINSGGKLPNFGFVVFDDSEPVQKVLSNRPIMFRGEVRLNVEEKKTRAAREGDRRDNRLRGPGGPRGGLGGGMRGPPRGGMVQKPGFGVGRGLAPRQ
Technique: RNA Bind-n-Seq
Form: RNA
Sample: in vitro
Tested at: 200 nM
Notes: whole 134-nt RNA, ends assumed
Added: 150 mM KCl
Relative to: input library
Reading: higher = stronger binding
Measurement: log2 enrichment
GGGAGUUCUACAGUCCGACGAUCCCUGUGCUACACAUCGUAUGUACCGAAUCGGGCCCCCCCGGCCCCCCCGGGGCCCCCCCGGAAAGUAUUAUGUUACGCCGUUCGGAUCUGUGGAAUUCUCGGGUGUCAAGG: -0.0598
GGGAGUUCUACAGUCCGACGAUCGUCCUGUGCUACACAUCGUAUGUACCGAAUCGGGCCCCCGGGGCCCCCGGGCCCCCGGAAAGUAUUAUGUUACGCCGUUCGGAUCUGCACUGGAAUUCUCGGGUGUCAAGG: -1.63
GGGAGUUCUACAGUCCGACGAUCUCCUGUGCUACACAUCGUAUGUACCGAAUCGGAAAAAAGGGGAAAAAAGGGAAAAAAGGAAAGUAUUAUGUUACGCCGUUCGGAUCUGCAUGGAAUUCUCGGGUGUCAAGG: -0.645
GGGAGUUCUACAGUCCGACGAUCUCCUGUGCUACACAUCGUAUGUACCGAAUCGGUUUUUUUGGUUUUUUUGGGUUUUUUUGGAAAGUAUUAUGUUACGCCGUUCGGAUCUGCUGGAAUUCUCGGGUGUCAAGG: -0.369
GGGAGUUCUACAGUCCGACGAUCCCUGUGCUACACAUCGUAUGUACCGAAUCGGGGUUUUUUUGGGGUUUUUGGGGAAAGGGGAAAGUAUUAUGUUACGCCGUUCGGAUCUGCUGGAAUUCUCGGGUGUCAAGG: 0.207
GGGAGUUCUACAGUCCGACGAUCGCAGGAAGUAAAAACAAAUGGAAAUGCUUCGGAUAGUGGCAGGGGUGGGGGUUGCUAAGGAAAGGGUGGGAAGGGAGUGGGUAAAGAGUUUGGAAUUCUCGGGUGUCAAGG: 0.814
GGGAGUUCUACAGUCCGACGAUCUCAAGUCCUGUGCUACACAUCGUAUGUACCGAAUCGGUUUUGGUUUUGGUUUUGGAAAGUAUUAUGUUACGCCGUUCGGAUCUGCACUUCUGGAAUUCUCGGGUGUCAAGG: -1.18
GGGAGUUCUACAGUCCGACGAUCAGUCCUGUGCUACACAUCGUAUGUACCGAAUCGGGUGGGUUUUUUUGGGAAAAAGGGAAAGUAUUAUGUUACGCCGUUCGGAUCUGCACUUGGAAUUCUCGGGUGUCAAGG: -0.18
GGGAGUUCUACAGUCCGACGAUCUCAAGUCCUGUGCUACACAUCGUAUGUACCGAAUCGGUGGUUUUUGGUUUUUGGAAAGUAUUAUGUUACGCCGUUCGGAUCUGCACUUCCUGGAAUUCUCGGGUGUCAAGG: -0.802
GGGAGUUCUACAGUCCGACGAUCCAAGUCCUGUGCUACACAUCGUAUGUACCGAAUCGGGUUGGGGUUGGGGUUGGGGAAAGUAUUAUGUUACGCCGUUCGGAUCUGCACUUCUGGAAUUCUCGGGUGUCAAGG: 1.09

Sample 3
Target: TAR DNA-binding protein 43, full length, His tag (TARDBP, Homo sapiens, UniProt Q13148, residues 1-414)
Technique: RNA Bind-n-Seq
Form: RNA
Sample: in vitro
Tested at: 20 nM
Notes: 6-mer, flanks averaged, single round
Added: 150 mM LiCl
Relative to: input library
Reading: higher = stronger binding
Measurement: 6-mer enrichment (R)
AGUGUC: 0.99
CGUCCG: 0.882
GGACUA: 0.993
UGAUCG: 0.981
UCUAGG: 0.87
ACCCUU: 1.08
CAUGUG: 1.15
CUUCAA: 0.836
AGGUUU: 1.02
CUGCCA: 0.92
ACGGAU: 0.872
UAUUCG: 0.92
AUGGUC: 0.916
GCCAUG: 0.947
AUCGAG: 0.88
UUAAGG: 0.955
UAGAUU: 0.882
GAAGUC: 0.864
GGAGCA: 1.01
UAUUAC: 0.941

Sample 4
Target: Interferon regulatory factor 5, full length, phosphomimetic (IRF5, Homo sapiens, UniProt Q13568-2, residues 1-514, S451D/S453D/S456D/S462D)
Technique: protein-binding microarray
Form: double-stranded DNA, one strand shown
Sample: in vitro
Tested at: 940 nM top
Notes: 60-bp whole probe
Added: salmon DNA 0.4 mg/ml
Relative to: random background probes
Reading: higher = stronger binding
Measurement: fitted relative affinity
All sequences stand within: GCCTAGCAC … GTCTTGATTCGCTTGACGCTGCTG
TAAGATATCAGTATCGATTAGTGCTAG: 5.18 z-score
TTCTGATTGAATCTCCCATTGTGCTAG: 0.433 z-score
TTAGATTTCAGACTGGATTGGTGCTAG: -0.184 z-score
TTAGAGCTGGGGACTGGATTAGTGCTA: -0.13 z-score
TCATTTTTGTATTTTTGACTGTGCTAG: 0.757 z-score
TCATTTTCCTATGTCATACTGTGCTAG: 1.22 z-score
CACGGTTTCCTTCTCCTGACGTGCTAG: 1.43 z-score
TCACAGTTTAATATCTAACTGTGCTAG: 0.111 z-score
GACGGTATCCTGCTCCTGACGTGCTAG: -0.22 z-score
TTAGATCTCAGTTTCGATTGGTGCTAG: 7.44 z-score
TCACCTTTACTTTCTTTACTGTGCTAG: 2.32 z-score
CACCCTTGGAAGTATGACTCTGTGCTA: -0.105 z-score
TTATGTTTCCTACTGCTTTAGTGCTAG: 0.791 z-score
TTAGATTTCGGGTTGCGATTAGTGCTA: 1.51 z-score
TTAAGTATCGGACTGGGTTAGTGCTAG: 3.19 z-score
TCAACTCTTCCTTTACTACTGTGCTAG: 1.83 z-score
CACCATCTAGTTCTGCTTTGGTGCTAG: 0.374 z-score
TTATGTTTCCTTTTCCTTTAGTGCTAG: 1.88 z-score
ATCTCTTTCCTTACTTCCCAGTGCTAG: 2.59 z-score
GTAGATGCCTTTCTCTTGGAGTGCTAG: 0.28 z-score
TTAGATATCGGATATCGATTAGTGCTA: 0.173 z-score
CACGGACTGGGACTGGGGACGTGCTAG: -0.558 z-score
GACGGTATCAGTTTCGGGACGTGCTAG: 5.99 z-score
TCTGTTTTCGCTTTCTTTAAGTGCTAG: 3.78 z-score

Some of these lines once more (sample 3):
AGGUUU: 1.02
CUGCCA: 0.92
ACGGAU: 0.872
UAUUCG: 0.92
AUGGUC: 0.916
